Results gathered from unrelated publications.
“And” joins repeats or separate records; there may be more than shown.
Organism: Staphylococcus epidermidis

Compound | test | test system | setting | MIC
CC(C)C[C@H](NC(=O)CNC(=O)[C@H](C)NC(=O)[C@H](CCCNC(=N)N)NC(=O)[C@H](Cc1c[nH]cn1)NC(=O)CNC(=O)CN)C(=O)N[C@@H](CCC(N)=O)C(=O)N[C@@H](Cc1ccccc1)C(=O)N1CCC[C@H]1C(=O)N[C@H](C(=O)NCC(=O)N[C@@H](CCCNC(=N)N)C(=O)N[C@H](C(=O)N[C@@H](Cc1c[nH]cn1)C(=O)N[C@@H](CCCNC(=N)N)C(=O)N[C@@H](CC(C)C)C(=O)N[C@@H](CC(C)C)C(=O)N[C@@H](CCCNC(=N)N)C(=O)N[C@@H](CCCCN)C(N)=O)C(C)C)C(C)C | – | ATCC 12228 | 18 to 20 h | 16 µM
CC[C@H](C)[C@H](NC(=O)[C@@H](Cc1ccccc1)NC)C(=O)N[C@@H](CO)C(=O)N[C@H](CCC(N)=O)C(=O)N[C@@H](C(=O)N[C@H](C(=O)OC[C@H](N)C(=O)N[C@H]1C(=O)N[C@@H](C)C(=O)N[C@@H](C2CCCCC2)C(=O)N[C@@H]([C@@H](C)CC)C(=O)O[C@H]1C)[C@@H](C)CC)[C@@H](C)CC | broth microdilution | ATCC 14990, Mueller-Hinton broth | 16 h, 37 °C | 0.25 µg/mL
CCCCCC/C=C\CCCCCCC[C@@H](O)Cc1cc(O)cc(O)c1 | microbial growth, broth dilution | ATCC35984 | drug-resistant strain | > 64 µg/mL
CCN1CCNC1=[S+][Ag-3]([O][N+](=O)[O-])([P+](c1ccccc1)(c1ccccc1)c1ccccc1)[P+](c1ccccc1)(c1ccccc1)c1ccccc1 | agar dilution | MTCC 435, Mueller Hinton agar | 24 h, 37 °C | 5 to 10 µg/mL and 5 µg/mL
CC[C@H](C)[C@@H]1NC(=O)CNC(=O)[C@H](CCCCN)NC(=O)[C@H](C)NC(=O)[C@H](CCC(=O)O)NC(=O)[C@H](Cc2ccccc2)NC(=O)[C@H](CO)NC(=O)[C@H](CC(C)C)NC(=O)[C@H](C(C)C)NC(=O)[C@H](CC(=O)O)NC(=O)[C@@H](NC(=O)[C@@H](NC(=O)[C@@H](N)C(C)C)[C@@H](C)O)CSSC[C@@H]2NC(=O)[C@H](CO)NC(=O)CNC(=O)CNC(=O)[C@H](CCCCN)NC(=O)[C@H](CCCCN)NC(=O)[C@H](CCCNC(=N)N)NC(=O)[C@H](CC(C)C)NC(=O)[C@H](C)NC(=O)[C@H]([C@@H](C)CC)NC(=O)[C@H](C)NC(=O)[C@H](Cc3c[nH]cn3)NC(=O)[C@H](CC(C)C)NC(=O)[C@H](C)NC(=O)[C@H](CSSC[C@@H](C(=O)N[C@H](C(=O)N[C@@H](C)C(=O)N[C@@H](CCCNC(=N)N)C(=O)N[C@@H](CC(N)=O)C(=O)O)C(C)C)NC(=O)[C@H](C(C)C)NC(=O)CNC(=O)[C@H](CC(N)=O)NC(=O)[C@H](CCC(N)=O)NC2=O)NC(=O)[C@H](C)NC(=O)[C@H](CO)NC(=O)[C@H](Cc2c[nH]cn2)NC(=O)[C@H](CC(N)=O)NC(=O)[C@H](C(C)C)NC(=O)[C@H](C)NC1=O | broth microdilution | KCTC 1917 | 16 h, 37 °C | > 100 µM
CC(C)C[C@H](NC(=O)CNC(=O)[C@H](C)NC(=O)[C@H](CCCNC(=N)N)NC(=O)[C@H](Cc1c[nH]cn1)NC(=O)[C@H](C)NC(=O)[C@@H](N)CC(=O)O)C(=O)N[C@@H](CCC(N)=O)C(=O)N[C@@H](Cc1ccccc1)C(=O)N1CCC[C@H]1C(=O)N[C@H](C(=O)NCC(=O)N[C@@H](CCCNC(=N)N)C(=O)N[C@H](C(=O)N[C@@H](Cc1c[nH]cn1)C(=O)N[C@@H](CCCNC(=N)N)C(=O)N[C@@H](CC(C)C)C(=O)N[C@@H](CC(C)C)C(=O)N[C@@H](CCCNC(=N)N)C(=O)N[C@@H](CCCCN)C(N)=O)C(C)C)C(C)C | – | ATCC 12228 | 18 to 20 h | 4 µM
CCCN1CCNC1=[S+][Ag-3]([O][N+](=O)[O-])([P+](c1ccccc1)(c1ccccc1)c1ccccc1)[P+](c1ccccc1)(c1ccccc1)c1ccccc1 | agar dilution | MTCC 435, Mueller Hinton agar | 24 h, 37 °C | 5 to 10 µg/mL and 10 µg/mL
CC[C@H](C)[C@H](NC(=O)[C@H](CCCNC(=N)N)NC(=O)[C@H](CCCCN)NC(=O)[C@H](CC(C)C)NC(=O)[C@H](CC(C)C)NC(=O)CNC(=O)[C@H](Cc1c[nH]cn1)NC(=O)[C@H](C)NC(=O)[C@@H](N)CC(=O)O)C(=O)N[C@@H](CCCCN)C(=O)N[C@H](C(=O)N[C@@H](CC(C)C)C(=O)N[C@@H](CC(C)C)C(N)=O)[C@@H](C)O | – | ATCC 12228 | 18 to 20 h | 16 µM
CCCCCCCCCCCCC[C@@H](O)Cc1cc(O)cc(O)c1 | microbial growth, broth dilution | ATCC35984 | drug-resistant strain | 32 µg/mL
CC[C@@H](C)[C@@H](NC(=O)[C@@H](C)NC(=O)[C@@H](CCCCN)NC(=O)[C@@H](CC(C)C)NC(=O)[C@@H](C)NC(=O)[C@H](NC(=O)[C@@H](Cc1c[nH]cn1)NC(=O)[C@@H](CC(C)C)NC(=O)[C@H](NC(=O)[C@H](NC(=O)[C@@H](CCCCN)NC(=O)[C@@H](CCCCN)NC(=O)[C@@H](C)NC(=O)[C@@H](CO)NC(=O)[C@@H](CCCCN)NC(=O)[C@@H](Cc1ccccc1)NC(=O)[C@H](NC(=O)[C@@H](CCCCN)NC(=O)[C@@H](CC(C)C)NC(=O)[C@@H](Cc1ccccc1)NC(=O)[C@@H](CO)NC(=O)[C@@H](CCCCN)NC(=O)[C@@H](Cc1c[nH]c2ccccc12)NC(=O)[C@@H](CCCCN)NC(C)=O)[C@H](C)O)[C@H](C)O)C(C)C)[C@H](C)O)C(=O)N[C@H](CO)C(=O)N[C@H](CO)C(N)=O | – | clinical isolate | 24 h, 37 °C | 4 µg/mL
CC[C@H](C)[C@H](NC(=O)[C@@H](N)C(C)C)C(=O)N[C@@H](Cc1c[nH]cn1)C(=O)N[C@@H](CCCNC(=N)N)C(=O)N[C@@H](C)C(=O)NCC(=O)N[C@@H](CC(C)C)C(=O)N[C@@H](CCC(N)=O)C(=O)N[C@@H](Cc1ccccc1)C(=O)N1CCC[C@H]1C(=O)N[C@H](C(=O)NCC(=O)N[C@@H](CCCNC(=N)N)C(=O)N[C@H](C(=O)N[C@@H](Cc1c[nH]cn1)C(=O)N[C@@H](CCCNC(=N)N)C(=O)N[C@@H](CC(C)C)C(=O)N[C@@H](CC(C)C)C(=O)N[C@@H](CCCNC(=N)N)C(=O)N[C@@H](CCCCN)C(N)=O)C(C)C)C(C)C | – | ATCC 12228 | 18 to 20 h | 8 µM
CC[C@H](C)[C@@H]1NC(=O)CNC(=O)[C@H](CCCCN)NC(=O)[C@H](C)NC(=O)[C@H](CCC(=O)O)NC(=O)[C@H](Cc2ccccc2)NC(=O)[C@H](CO)NC(=O)[C@H](CC(C)C)NC(=O)[C@H](C(C)C)NC(=O)[C@H](CC(=O)O)NC(=O)[C@@H](NC(=O)[C@@H](NC(=O)[C@@H](N)C(C)C)[C@@H](C)O)CSSC[C@@H]2NC(=O)[C@H](CO)NC(=O)CNC(=O)CNC(=O)[C@H](CCCCN)NC(=O)[C@H](CCCCN)NC(=O)[C@H](CCCNC(=N)N)NC(=O)[C@H](CC(C)C)NC(=O)[C@H](C)NC(=O)[C@H]([C@@H](C)CC)NC(=O)[C@@H]3CSSC[C@@H](C(=O)N[C@@H](CCCNC(=N)N)C(=O)N[C@@H](CC(N)=O)C(=O)O)NC(=O)[C@H](C(C)C)NC(=O)[C@H](CSSC[C@H](NC(=O)[C@H](C)NC(=O)[C@H](CO)NC(=O)[C@H](Cc4c[nH]cn4)NC(=O)[C@H](CC(N)=O)NC(=O)[C@H](C(C)C)NC(=O)[C@H](C)NC1=O)C(=O)N[C@@H](C)C(=O)N[C@@H](CC(C)C)C(=O)N[C@@H](Cc1c[nH]cn1)C(=O)N3)NC(=O)[C@H](C(C)C)NC(=O)CNC(=O)[C@H](CC(N)=O)NC(=O)[C@H](CCC(N)=O)NC2=O | broth microdilution | KCTC 1917 | 16 h, 37 °C | 1.6 µM
CC[C@H](C)[C@H](NC(=O)[C@@H](Cc1ccccc1)NC)C(=O)N[C@@H](CO)C(=O)N[C@H](CCCNC(=N)N)C(=O)N[C@@H](C(=O)N[C@H](C(=O)OC[C@H](N)C(=O)N[C@H]1C(=O)N[C@@H](C)C(=O)N[C@@H](CC(C)C)C(=O)N[C@@H]([C@@H](C)CC)C(=O)O[C@H]1C)[C@@H](C)CC)[C@@H](C)CC | broth microdilution | ATCC 14990, Mueller-Hinton broth | 16 h, 37 °C | 0.0156 to 0.0312 µg/mL
Cc1cccc(C)c1SCC1OC(OC2C(N)CC(N)C(OC3OC(CN)C(O)CC3N)C2O)C(O)C(N)C1O (stereo not shown) | – | – | – | 18.8 µg/mL
CC[C@H](C)[C@H](NC(=O)[C@H](NC(=O)[C@@H](CCC(N)=O)NC(=O)[C@@H](N)COC(=O)[C@@H](NC(=O)[C@@H](Cc1ccccc1)NC)[C@@H](C)CC)[C@@H](C)CC)C(=O)N[C@@H](CO)C(=O)N[C@H]1C(=O)N[C@@H](C)C(=O)N[C@@H](C2CCCCC2)C(=O)N[C@@H]([C@@H](C)CC)C(=O)O[C@H]1C | broth microdilution | ATCC 14990, Mueller-Hinton broth | 16 h, 37 °C | 0.25 µg/mL
c1ccc(CCNC2CCCc3c2[nH]c2ccc(C4CCCCC4)cc32)cc1 (stereo not shown) | microbial growth, broth dilution | MRSE | – | 2 µg/mL

A few entries again:
Compound | test | test system | setting | MIC
CC(C)C[C@H](NC(=O)CNC(=O)[C@H](C)NC(=O)[C@H](CCCNC(=N)N)NC(=O)[C@H](Cc1c[nH]cn1)NC(=O)[C@H](C)NC(=O)[C@@H](N)CC(=O)O)C(=O)N[C@@H](CCC(N)=O)C(=O)N[C@@H](Cc1ccccc1)C(=O)N1CCC[C@H]1C(=O)N[C@H](C(=O)NCC(=O)N[C@@H](CCCNC(=N)N)C(=O)N[C@H](C(=O)N[C@@H](Cc1c[nH]cn1)C(=O)N[C@@H](CCCNC(=N)N)C(=O)N[C@@H](CC(C)C)C(=O)N[C@@H](CC(C)C)C(=O)N[C@@H](CCCNC(=N)N)C(=O)N[C@@H](CCCCN)C(N)=O)C(C)C)C(C)C | – | ATCC 12228 | 18 to 20 h | 4 µM
CC[C@H](C)[C@H](NC(=O)[C@@H](Cc1ccccc1)NC)C(=O)N[C@@H](CO)C(=O)N[C@H](CCC(N)=O)C(=O)N[C@@H](C(=O)N[C@H](C(=O)OC[C@H](N)C(=O)N[C@H]1C(=O)N[C@@H](C)C(=O)N[C@@H](C2CCCCC2)C(=O)N[C@@H]([C@@H](C)CC)C(=O)O[C@H]1C)[C@@H](C)CC)[C@@H](C)CC | broth microdilution | ATCC 14990, Mueller-Hinton broth | 16 h, 37 °C | 0.25 µg/mL
